Results gathered from unrelated publications.
Compare with care: the assays were run in different laboratories. ± marks the error that the study gave.

With `N#C/C(=C/c1ccc(O)c(O)c1)C(=O)NCc1ccccc1` the IC50 was 145 µM (Ba/F3 JAK2 V617F; kinase activity; immunoprecipitated full-length JAK2; together with: IL-3).
The IC50 of `N.N.[Cl][Pt][Cl]` is reported as 64.1 ± 1.6 µM (CCD-18Co colon fibroblasts; cell viability, MTS; 72 h).
With `N#CC1(c2ccc(NC(=O)c3cccnc3NCc3ccncc3)cc2)CCCC1` the IC50 was 1.65 µM (MHCC97H; cell growth or viability, MTT; 48 h).
For `C[C@H]1C[C@H]2[C@@H]3CCC4=CC(=O)C=C[C@]4(C)[C@@]3(Cl)[C@@H](O)C[C@]2(C)[C@@]1(O)C(=O)CO`, the IC50 was over 10 µM (H3255 (EGFR L858R); cell viability, Alamar Blue; 120 h).
With `COc1ccc2oc(C(=O)c3cc(OC)c(OC)c(OC)c3)c(N)c2c1` the IC50 was 7.2 µM (K562; cell growth or viability).
`Cc1ccc(NC(=O)Cn2cnc3ccccc3c2=O)c(O)c1` has an IC50 of over 100 µM (MDA-MB-231; cell growth or viability, crystal violet; 48 h).
`COc1cc2c(c(OC)c1OC)-c1ccc(N)c(=O)cc1[C@@H](NC(C)=O)CC2` gave an IC50 of 0.036 ± 0.005 µM (HT-1080 MT1-MMP positive; cell viability, MTT; 24 h exposure, read 96 h post treatment).
`O=C(c1cc2c(F)cc(F)cc2[nH]1)N1CCN(C(=O)C23CC4CC(CC(C4)C2)C3)CC1` gave an IC50 of 5.04 µM (KNS-42; cell growth or viability, resazurin; 72 h).
With `CC[C@H](C)[C@@H]1NC(=O)[C@H](CCC(=O)O)NC(=O)[C@H](C)NC(=O)[C@H](CC(C)C)NC(=O)[C@H](CC(C)C)NC(=O)[C@H](C)NC(=O)C2(CCCC=CCCCCCC[C@@](C)(C(=O)N[C@@H](C)C(=O)N[C@@H](CC(N)=O)C(=O)N[C@@H](CC(C)C)C(=O)N[C@@H](CO)C(N)=O)NC1=O)CCCC=CCCC[C@](C)(NC(=O)[C@H](CC(N)=O)NC(=O)[C@H](CCC(=O)O)NC(=O)[C@@H]1CCCN1C(=O)[C@@H](N)CC(N)=O)C(=O)N[C@@H]([C@@H](C)CC)C(=O)N[C@@H](C)C(=O)N[C@@H](CCCCN)C(=O)N2` (stereo partly drawn) the IC50 was 0.093 µM (HCT-116 expressing NanoLuc-HaloTag; intracellular peptide delivery, NanoBRET; 24 h, 37 °C, 1% DMSO).
For `Nc1cccc2c(N)cccc12`, IC50 read “inactive” (HepG2; mitochondrial membrane potential, fluorescence plate reader; 5 h).
`C=C(C)C1CC=C(COC(=O)CCC(=O)OC2OC3OC4(C)CCC5C(C)CCC(C2C)C35OO4)CC1` (stereo not drawn) gave an IC50 of 5.6 ± 0.6 µM (SK-MEL3; cell viability, MTT; 24 h, together with: deferoxamine 20 µM, 1 h before).
The IC50 of `COc1ccc(C[C@H]2NC(=O)/C=C/C[C@@H]([C@H](C)[C@@H](OC(=O)CNC(=O)OCc3cc(NC(=O)CCCc4cn(CCC(=O)NCCCC[C@@H]5NC(=O)[C@@H](Cc6ccccc6)NC(=O)[C@H](CC(=O)O)NC(=O)CNC(=O)[C@H](CCCNC(=N)N)NC5=O)nn4)cc(O[C@@H]4O[C@H](C(=O)O)[C@@H](O)[C@H](O)[C@H]4O)c3)[C@@H](Cl)c3ccccc3)OC(=O)[C@H](CC(C)C)OC(=O)C(C)(C)CNC2=O)cc1Cl` is reported as 0.308 ± 0.022 µM (M21; cytotoxicity, resazurin; 2 h plus 70 h incubation, with β-glucuronidase 2 U/well).
For `CCCCCc1cc(O)c(C/C=C(\C)CCC=C(C)C)c(O)c1`, the IC50 was 16.6 µM (SK-OV-3 (HER2-positive); cell viability, MTT; 72 h).
For `CC[C@@]1(O)C(=O)OCc2c1cc1n(c2=O)Cc2cc3ccccc3nc2-1`, the IC50 was 0.737 µM (GL261; cell growth or viability, CCK-8).
The IC50 of `N.N.[Cl][Pt][Cl]` is reported as 2.06 ± 0.02 µM (Vero E6; cytotoxicity, crystal violet staining; 96 h).
`echistatin` has an IC50 of 0.0009 ± 0.00023 µM (U-87 MG; cell adhesion to vitronectin; 2 h).
The IC50 of `CC(NC(=O)c1cc2ccc(Br)cc2[nH]1)C12CC3CC(CC(C3)C1)C2` (stereo not drawn) is reported as 0.84 µM (KNS-42; cell growth or viability, resazurin; 72 h).
`COc1ccc(C[C@H]2NC(=O)/C=C/C[C@@H]([C@H](C)[C@@H](OC(=O)CNC(=O)OCc3ccc(NC(=O)[C@H](C)NC(=O)[C@@H](NC(=O)CCc4cn(CCOCCOCCOCCOCC(=O)NCc5ccc(CN6C(=O)[C@H]7CC(=O)N[C@H](C(=O)O)CC(=O)NCC(=O)N[C@@H](CCCNC(=N)N)C(=O)NC[C@H]6C(=O)N7)cc5)nn4)C(C)C)cc3)[C@@H](Cl)c3ccccc3)OC(=O)[C@H](CC(C)C)OC(=O)C(C)(C)CNC2=O)cc1Cl` gave an IC50 of 0.123 ± 0.0186 µM (M21 human melanoma (integrin αvβ3-positive); cell viability, MTT; 2 h treatment plus 70 h).
For `CCCCCCCCCCC[C@@H](C[C@@H]1OC(=O)[C@H]1CCCCCC)OC(=O)[C@H](CC(C)C)NC=O`, the IC50 was 68 µM (PANC-1; colony formation).
`CC[C@H](C)[C@H](N)C(=O)N[C@@H](CC(C)C)C(=O)N[C@@H](CCCNC(=N)N)C(=O)N[C@@H](Cc1c[nH]c2ccccc12)C(=O)N[C@@H](CO)C(=O)N[C@@H](CCCNC(=N)N)C(=O)N[C@@H](CCCCN)C(=O)N[C@@H](CC(C)C)C(=O)N1CCC[C@H]1C(=O)N[C@@H](CS)C(=O)N[C@H](C(=O)N[C@@H](CO)C(=O)O)C(C)C` has an IC50 of 2.62 ± 1.4 µM (SUP-T1; AKT phosphorylation, inhibitor, phosphoflow cytometry; together with: CXCL12 100 ng/mL, 2 min).
For `CO[C@H]1/C=C\C=C(/C)C(=O)NC2=CC(=O)C(NCCN(C)C)=C(C[C@@H](C)C[C@H](OC)[C@H](O)[C@@H](C)/C=C(\C)[C@@H]1OC(N)=O)C2=O`, the IC50 was 0.021 ± 0.01 µM (H3255 (EGFR L858R); cell viability, Alamar Blue; 120 h).
`Cc1ccc(C(C)C)cc1.[Cl][Ru]([Cl])[PH]12CN3CN(CN(C3)C1)C2` has an IC50 of over 200 µM (A2780cisR; cell growth or viability, MTT; 72 h, drug-resistant strain).
For `N.N.[Cl][Pt][Cl]`, the IC50 was 2.56 µM (A-375; cell growth or viability, MTT; 72 h).
For `CC[C@H](C)[C@H](NC(=O)[C@@H](N)Cc1ccccc1)C(=O)NCC(=O)N[C@H](C(=O)N[C@@H](CC(C)C)C(=O)N[C@H](C(=O)N1CCC[C@H]1C(=O)N[C@@H](CC(C)C)C(=O)N[C@@H](C)C(=O)N[C@@H](CC(C)C)C(=O)NCC(=O)N[C@@H](C)C(=O)N[C@@H](CC(C)C)C(=O)N[C@H](C(=O)N[C@@H](CCCCN)C(=O)N[C@@H](CC(C)C)C(=O)N[C@@H](Cc1ccccc1)C(=O)N[C@@H](CCCCN)C(N)=O)[C@@H](C)O)[C@@H](C)CC)[C@@H](C)O`, the IC50 was 8.18 µM (K562; cell growth or viability, CCK-8; 24 h).
`O=C(Cn1cnc2ccccc2c1=O)Nc1ccccc1O` gave an IC50 of over 100 µM (MDA-MB-231; cell growth or viability, crystal violet; 48 h).
For `COC(=O)C[C@H](O)COC(=O)/C=C/CCl`, the IC50 was 7.8 µM (RAW264.7; NO release, inhibitor; LPS-stimulated).
The IC50 of `O=C(N=P12CN3CN(CN(C3)C1)C2)c1ccccn1` is reported as over 500 µM (DU-145; cell growth or viability, MTT; 24 h).
For `COc1ccc(C[C@H]2NC(=O)/C=C/C[C@@H]([C@H](C)[C@@H](OC(=O)CN)[C@@H](Cl)c3ccccc3)OC(=O)[C@H](CC(C)C)OC(=O)C(C)(C)CNC2=O)cc1Cl`, the IC50 was 0.00014 ± 8e-05 µM (M21-L human melanoma (integrin αv-negative); cell viability, MTT; 2 h treatment plus 70 h).
For `O=P12CN3CN(CN(C3)C1)C2`, the IC50 was over 500 µM (DU-145; cell growth or viability, MTT; 24 h).
`CCn1cnc2c(Nc3cccc(Cl)c3)nc(N[C@@H]3CCCC[C@@H]3N)nc21` has an IC50 of 7 ± 1 µM (HeLa expressing Ub(G76V)-GFP; Ub(G76V)-GFP degradation, inhibitor, cycloheximide chase).
`N=C(N)NCCC[C@H](NC(=O)[C@H](Cc1c[nH]c2ccccc12)NC(=O)[C@H](CCC(N)=O)NC(=O)[C@H](Cc1c[nH]c2ccccc12)NC(=O)[C@H](CCCNC(=N)N)NC(=O)[C@H](Cc1c[nH]c2ccccc12)NC(=O)[C@H](CCC(N)=O)NC(=O)[C@H](Cc1c[nH]c2ccccc12)NC(=O)[C@@H](N)CCCN)C(N)=O` has an IC50 of 91 µM (Caco-2; cell growth or viability, MTT).
`CC(C)c1ccc2c(c1)CC[C@H]1[C@](C)(CN)CCC[C@]21C` gave an IC50 of 4.61 µM (MEL-JUSO; cell growth or viability, MTS; 48 h).
With `CC(=N)NCCCC[C@H](N)C(=O)O` the IC50 was 8.14 µM (mouse peritoneal cells; nitric oxide production, Griess; 24 h, together with: LPS plus IFN-gamma).
With `COc1ccc(C2=C3C=C(Cl)C(c4ccc(OC)cc4)=[N+]3[B-](F)(F)n3c2cc(Cl)c3-c2ccc(NC(=S)NCCOCCOCCOCCC(=O)N[C@@H](CC(C)C)C(=O)N[C@@H](C)C(=O)N[C@@H](CCCNC(=N)N)C(=O)N[C@@H](CC(C)C)C(=O)N[C@@H](CC(C)C)C(=O)N[C@H](C(N)=O)[C@@H](C)O)cc2)cc1` the IC50 was 74 µM (HEp-2; phototoxicity, viability; 24 h after irradiation, together with: light 1.5 J/cm2 for 20 min).
With `COc1ccc(C[C@H]2NC(=O)/C=C/C[C@@H]([C@H](C)[C@@H](OC(=O)CNC(=O)CCc3cn(CCOCCOCCOCCOCC(=O)NCc4ccc(CN5C(=O)[C@H]6CC(=O)N[C@H](C(=O)O)CC(=O)NCC(=O)N[C@@H](CCCNC(=N)N)C(=O)NC[C@H]5C(=O)N6)cc4)nn3)[C@@H](Cl)c3ccccc3)OC(=O)[C@H](CC(C)C)OC(=O)C(C)(C)CNC2=O)cc1Cl` the IC50 was 0.288 ± 0.0359 µM (M21 human melanoma (integrin αvβ3-positive); cell viability, MTT; 2 h treatment plus 70 h).
`N.N.[Cl][Pt][Cl]` has an IC50 of 17 µM (A2780cisR; cell growth or viability, MTT; 72 h, drug-resistant strain).
For `CC(C(O)c1ccc(O)cc1)N1CCC(Cc2ccccc2)CC1` (stereo not drawn), the IC50 was 8.2 µM (HEK293 expressing MOR; cAMP overshoot, inhibitor, HTRF cAMP; together with: morphine then naloxone).
The IC50 of `O=C(NC(=O)c1cc2c(F)cc(F)cc2[nH]1)c1cccc(Cl)c1` is reported as 6.65 µM (KNS-42; cell growth or viability, resazurin; 72 h).
`N.N.[Cl][Pt][Cl]` has an IC50 of 52.9 µM (NCI-H838; cell growth or viability, MTT; 4 h).
For `CC(C)c1c(Cl)nc(N)nc1Cl`, the IC50 was 19.6 µM (mouse peritoneal cells; nitric oxide production, Griess; 24 h, together with: LPS plus IFN-gamma).
With `CCN(CC)CCCCNc1ncc2cc(-c3c(Cl)cccc3Cl)c(NC(=O)NC(C)(C)C)nc2n1` the IC50 was 21.1 µM (HEK293T ERR reporter line; cell viability, qHTS).
`COc1cccc2c1C(=O)c1c(O)c3c(c(O)c1C2=O)C[C@@](O)(C(=O)CO)C[C@@H]3O[C@H]1C[C@H](N)[C@H](O)[C@H](C)O1` has an IC50 of 3.3 µM (U-251; cell growth or viability, SRB; 72 h).

A few entries again:
With `N#C/C(=C/c1ccc(O)c(O)c1)C(=O)NCc1ccccc1` the IC50 was 145 µM (Ba/F3 JAK2 V617F; kinase activity; immunoprecipitated full-length JAK2; together with: IL-3).
The IC50 of `N.N.[Cl][Pt][Cl]` is reported as 64.1 ± 1.6 µM (CCD-18Co colon fibroblasts; cell viability, MTS; 72 h).
With `N#CC1(c2ccc(NC(=O)c3cccnc3NCc3ccncc3)cc2)CCCC1` the IC50 was 1.65 µM (MHCC97H; cell growth or viability, MTT; 48 h).
